# Experimental data collected from several papers.
# A part holds a random share of what one study measured. Substitutions count along the parent as printed.

# Sample 1
# Target: Sal-like protein 4, full length isoform B (SALL4, Homo sapiens, UniProt Q9UJQ4-2, residues 1-616)
# Method: universal PBM
# Form: double-stranded DNA, one strand shown
# Medium: in vitro
# Tested at: not given
# Notes: 8-mer, flanks averaged, mean of replicates
# Direction: higher = stronger binding
Oligonucleotide,E-score
CAAGCGCA,-0.00201
GCAAATGC,-0.102
GACAATCC,-0.0373
CACTAGAA,0.0928
GCAGATCA,-0.0858
TGGGAAAA,0.0299
AATCTACC,0.127
CGAGGGCA,-0.178
TAGCTAGA,-0.0745
CAGAACTG,-0.0988
ACAGCGTC,-0.0626
ATAGCACG,0.0626
CGGCGGTA,-0.276
CTGGAAAC,0.0288
CGAAGCAC,-0.109
AGATTCAC,-0.0432
GGATGCCC,-0.319
TACAAGCA,0.121
ATATGGAC,0.252
AACCAACC,-0.124
CGACTCAC,-0.159
CCAGTCGA,-0.252
CGTCTTCC,-0.164
GCAGGAAC,-0.138
ACCCCGGA,-0.192

# Sample 2
# Organism: Saccharomyces cerevisiae
# Observed: binding
# Method: competitive growth deep sequencing
# Form: peptide
# Strain: cyclin D3-Cln2 fusion strain
# Tested at: concentration not given
# Notes: tiling library, Cln2 subtracted
# Direction: direction not given
Sequence,growth enrichment score
PPKPLKKLRFDIEGSD,-0.34
NCKKRRALDFLSRLPL,0.295
GPVKLEFDVSDGAT,-0.0508
LFVPQRKLEVSTEDVH,-0.954

# Sample 3
# Target: Histone acetyltransferase KAT6A, both winged helices, GST fusion (KAT6A, Homo sapiens, UniProt Q92794, residues 1-181)
# Method: protein binding microarray
# Form: double-stranded DNA, one strand shown
# Medium: in vitro
# Tested at: not given
# Notes: 8-mer, flanks averaged, mean of 2 arrays, mostly near background
# Relative to: not given
# Direction: higher = stronger binding
# Target sequence (chain): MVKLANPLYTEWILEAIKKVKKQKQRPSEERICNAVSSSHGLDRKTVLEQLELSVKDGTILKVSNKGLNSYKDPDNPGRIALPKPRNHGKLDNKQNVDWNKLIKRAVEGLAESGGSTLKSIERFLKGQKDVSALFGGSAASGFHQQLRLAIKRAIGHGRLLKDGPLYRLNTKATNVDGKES
Oligonucleotide,E-score
GCCTCTGA,-0.169
ATCAAGTG,-0.132
CCCTAATC,-0.261
CTATGCAC,-0.139
CTCGCACC,-0.0489
AAAGTGAA,-0.0586
TACGTCGA,-0.152
GAACTGAA,0.077
ATGTCTTA,-0.0407
AAGAACGT,0.149
GCGCACGC,0.342
GGTGATCA,-0.0655
ACAAATAC,0.00314
ATTTCTCA,-0.11
GGCGTTAA,0.204
ACCATGGA,-0.172
CGTTATAA,0.0667
ATGCTGCA,-0.164
ATCCTAAA,-0.126
CGTTGTAC,0.124
CCTGGTAC,-0.196
AGCGCACG,0.271
AATTGAGT,-0.0273
GCCATTCC,0.0127
CCGCTGGA,0.197

# Sample 4
# Target: ABI1, truncated, D143A, DHFR fusion (Arabidopsis thaliana)
# Method: DHFR PCA, deep sequencing
# Medium: yeast
# Notes: methotrexate growth selection, single substitutions
# Added: (+)-ABA 710 µM
# Relative to: wild-type fitted maximum
# Direction: higher = stronger binding
# Starting sequence: PYL1, truncated, DHFR fusion (Arabidopsis thaliana); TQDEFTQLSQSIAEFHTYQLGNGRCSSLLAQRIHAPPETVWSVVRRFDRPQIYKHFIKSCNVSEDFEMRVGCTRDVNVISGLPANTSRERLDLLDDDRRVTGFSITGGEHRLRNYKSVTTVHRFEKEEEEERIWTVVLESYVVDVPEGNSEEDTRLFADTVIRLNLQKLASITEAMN
Variant,relative binding score
V100Y,85.6%
R88V,103%
I33H,-17.2%
Q51E,93.1%
V118G,-2.43%
V161M,93.7%
G107F,58.2%
Q167P,-8.14%
R45K,99.3%
N165Y,53.5%
K58L,93.3%
N114H,99.2%
I57P,-9.97%
I105D,2.16%
L138T,64%
Q10Y,94.2%
G107Y,76.1%
R49T,102%
V118D,10.7%
N149V,74.3%
F56H,65.3%
D75T,97.3%

# Sample 5
# Target: UBE2Q1 UBC core domain (UniProt Q7Z7E8)
# UniProt Q7Z7E8, sequence (whole entry, looked up): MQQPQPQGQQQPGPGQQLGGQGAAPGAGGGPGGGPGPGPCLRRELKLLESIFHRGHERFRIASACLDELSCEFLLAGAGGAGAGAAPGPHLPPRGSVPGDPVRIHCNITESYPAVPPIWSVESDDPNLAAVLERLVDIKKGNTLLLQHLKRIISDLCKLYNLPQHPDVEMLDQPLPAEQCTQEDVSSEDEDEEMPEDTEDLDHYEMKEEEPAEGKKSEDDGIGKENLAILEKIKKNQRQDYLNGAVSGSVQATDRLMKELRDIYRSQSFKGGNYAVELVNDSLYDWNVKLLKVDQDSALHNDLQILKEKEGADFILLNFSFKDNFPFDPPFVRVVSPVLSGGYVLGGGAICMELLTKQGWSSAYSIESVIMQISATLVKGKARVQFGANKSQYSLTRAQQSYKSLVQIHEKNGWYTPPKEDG
# Method: yeast two-hybrid
# Medium: yeast
# Notes: mostly zero background
# Relative to: not given
# Direction: higher = stronger interaction
# B1: TRIM28 RING domain (UniProt Q13263); chain GAEALELLEHCGVCRERLRPEREPRLLPCLHSACSACLGPAAPAAANSSGDGGAAGDGTVVDCPVCKQQCFSKDIVE
# B2: RNF11 RING domain (UniProt Q9Y3C5); chain RDGSEKKIRECVICMMDFVYGDPIRFLPCMHIYHLDCIDDWLMRSFTCPSCMEPVDAALLSS
# B3: TRIM68 RING domain (UniProt Q6AZZ1); chain LVEAIVEEVACPICMTFLREPMSIDCGHSFCHSCLSGLWEIPGESQNWGYTCPLCRAPVQPRNLRP
# B4: RNF32 RING domain (UniProt Q9H0A6); chain VQALRRETHECSICLAPLSAAGGQRVGAGRRSREMALLSCSHVFHHACLLALEEFSVGDRPPFHACPLCRSCYQKKILEC
# B5: RNF130 RING domain (UniProt Q86XS8); chain DKETDPDFDHCAVCIESYKQNDVVRILPCKHVFHKSCVDPWLSEHCTCPMCKLNILKALGIV
# B6: UBE4B RING domain (UniProt O95155); chain KNARAEIDYSDAPDEFRDPLMDTLMTDPVRLPSGTIMDRSIILRHLLNSPTDPFNRQTLTESMLEPVPELKEQIQAWMREKQNSDH
# B7: ARIH1 RING domain (UniProt Q9Y4X5); chain NTRSSAQDMPCQICYLNYPNSYFTGLECGHKFCMQCWSEYLTTKIMEEGMGQTISCPAHGCDILVDDNTVM
# B8: TRIM74 RING domain (UniProt Q86UV6); chain SLLELEDWLQCPICLEVFKESLMLQCGHSYCKGCLVSLSYHLDTKVRCPMCWQVVDGSSSLP
# B9: PJA2 RING domain (UniProt O43164); chain DHTAIGQEQCCPICCSEYIKDDIATELPCHHFFHKPCVSIWLQKSGTCPVCRRHFPPAVIEA
Sequence,lacZ reporter activity
EIKDYKARLTCPCCNMRKKDAVLTKCFHVFCFECVKTRYDTRQRKCPKCNAAFGANDFHR (RNF20 RING domain (UniProt Q5VTR2)),0
B1 (TRIM28 RING domain),0
B2 (RNF11 RING domain),0
GSEEEEIPFRCFICRQAFQNPVVTKCRHYFCESCALEHFRATPRCYICDQPTGGIFNPA (RNF113B RING domain (UniProt Q8IZP6)),0
B3 (TRIM68 RING domain),0
B4 (RNF32 RING domain),0
MEEMEEELKCPVCGSFYREPIILPCSHNLCQACARNILVQTPESESPQSHRAAGSGVSDY (TRIM9 RING domain (UniProt Q9C026)),0
SNNDLASLFECPVCFDYVLPPILQCQSGHLVCSNCRPKLTCCPTCRGPLGSIRNLA (SIAH1 RING domain (UniProt Q8IUQ4)),0
B5 (RNF130 RING domain),0
B6 (UBE4B RING domain),0
FLSKVEETFQCICCQELVFRPITTVCQHNVCKDCLDRSFRAQVFSCPACRYDLGRSYAMQ (UHRF1 RING domain (UniProt Q96T88)),0
B7 (ARIH1 RING domain),0
B8 (TRIM74 RING domain),0
B9 (PJA2 RING domain),2150
EDVLSKDAGECAICLEELQQGDTIARLPCLCIYHKGCIDEWFEVNRSCPEHPSD (ZNRF2 RING domain (UniProt Q8NHG8)),0

# Sample 6
# Target: Protein C-ets-1 (ETS1, Homo sapiens, UniProt P14921, residues 1-441, full length assumed)
# UniProt P14921, sequence (whole entry, looked up): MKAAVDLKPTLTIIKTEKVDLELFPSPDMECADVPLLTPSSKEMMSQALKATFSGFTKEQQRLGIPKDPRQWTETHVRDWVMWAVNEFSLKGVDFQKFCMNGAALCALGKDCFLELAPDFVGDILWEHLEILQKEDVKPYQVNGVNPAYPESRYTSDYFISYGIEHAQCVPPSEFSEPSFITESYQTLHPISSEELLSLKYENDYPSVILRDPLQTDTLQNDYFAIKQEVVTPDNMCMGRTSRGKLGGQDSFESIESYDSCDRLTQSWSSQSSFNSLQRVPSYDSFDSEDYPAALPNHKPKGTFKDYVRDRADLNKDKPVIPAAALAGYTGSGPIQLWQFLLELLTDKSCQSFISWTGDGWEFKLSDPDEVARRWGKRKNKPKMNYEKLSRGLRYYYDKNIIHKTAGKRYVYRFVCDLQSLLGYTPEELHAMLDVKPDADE
# Method: protein-binding microarray
# Form: double-stranded DNA, one strand shown
# Medium: in vitro
# Tested at: not given
# Notes: k-mer, scored over probes, only values ≥0.25
# Direction: higher = stronger binding
Oligonucleotide,E-score
CCTTCCCC,0.304
AAATCCGG,0.435
GGATATAA,0.322
CCGCGTCC,0.335
ATCCGCTG,0.369
CCGACCGG,0.324
ATCCGTTA,0.35
CTCGGAAG,0.317
GGAAGTCA,0.44
CCGGTGGA,0.275
ATGCCGGA,0.433
CTGTTTCC,0.427
TCCCCGGA,0.421
CTTCCTAC,0.389
AGGCTTCC,0.291
CTCCCGGA,0.388

# Sample 7
# Target: RNA binding protein fox-1 homolog 2, RRM domain, GST-SBP tag (RBFOX2, Homo sapiens, UniProt O43251-10, residues 100-194)
# Method: RNA Bind-n-Seq
# Form: RNA
# Medium: in vitro
# Tested at: 365 nM
# Notes: natural RNA segment, single round, ends assumed
# Relative to: no-protein control
# Direction: higher = stronger binding
# All sequences stand within: GGGAGUUCUACAGUCCGACGAUC … UGGAAUUCUCGGGUGCCAA
# Target sequence (chain): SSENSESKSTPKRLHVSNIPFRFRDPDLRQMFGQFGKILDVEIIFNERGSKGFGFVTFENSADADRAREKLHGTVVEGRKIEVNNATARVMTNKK
Oligonucleotide,RBNS enrichment (R)
UGCCCUUUGCUGGGAAGCCUUCACUCUCCAGCUUUCCUGGGGUAGGGAAGGUCUCCCACAUUAUGCAAUAAUAAAAUAAGCAUCUGGGUCUUUGCAGCUGUCAGUUGCUC,0.274
AUUUGAGUUUAUUCAGACUUAAUUUAGUGCCCUACUUGUGUUAUAAUGGAAACUUAGAAGGUCAGAACUCUGUAAUGGACAUAAACUGUUAAGUACUCAGGCAUGACUAC,0.646
UGGUCGCCAAGUAGAGCAAGCCCCCUUUCUCUUCCCAAUCACGUGGCUGAGUGUGGAUGACUUUUAUUUUAGGAGAAGGGCGAUUAACACUUUUGACAGUAUUUUGUUUU,0.544
CCCCAUGAUUCUGCUUCACUGUUGGAAUCCUCUUUGAAGUUCCCCCUCUCUUUGCUAAAGCAGUGAAGGAAGAGAACAGAGACAAACUCUUUGGACUGUGAAAGAGAAGG,0.369
CACCGCUGGGACGGAUUCAGUGCCAGGCUGGGCGCAAGGCCCCUUACCAGUGGGCUGCUGCUCUGUGGCUGAGGGGCCAUCUAUGCAGAGUCUGUCCCUAUUUAUGUAUG,0.966
UUCGGAUAGUAGGCUCUCCCUGCUCCCUUCUCUACAGGAAUCUCUGGAAAACUAUCAGAAGACAAAGUUUGACACCUUGAUACCCACUCUCUGUGAAUACCUACCCCCUU,0.428
ACAUAACUGAGUUUUUUAAAAGAGGAGAAAAUUUAUAUCUGGGUUAAGUGUUUAUCAUAUAUAUGGGUACUUUGUAAUAUCUAAAAACUUAGAAACGGAAAUGGAAUCCU,0.823
CUGUAUUCUCAGCACUCAGGAGACUGCUACAGCAGGAUUGAGAGAUCAGAGGCAGGCUUGUCUUUGUAGAGAAUUACAAGCCUGCUUGAGCUACAGAGUGUGAUCCUGUC,0.459
UGUGUUUGGAACAAGAAGCAUCUCAGCAUUCUGUGAGAUCUGCAUGGAUCCUGUGGGUGGAGUCAGCAGGAACAAAGGGUUUUCCAUGGUAUUGAUGCUACCUCAGGUCU,3.21
GAGCCCAGGGUUCCAUCUCACCACCUAUAAGUUGUCAGAAACUCGGAUGCCCCUCCACCCACCUCUGGCAUCUCUAUGCUGCUAAUCUCUGCCACGUGUCCCGUGUGCUC,0.386
GGCACCCCAGUUGUGGGGGAGCCUGUAUUUUUUUUAACAACAUCCCCAUUCCCCACCUGGUCCUCCCCCUUCCCAUGCUGCCAACUUCUAACCGCAAUAGUGACUCUGUG,0.599
AGUGCUUUUUGUGUGGCUGAAGCGAUGUGCUGACGAAAAAAGGAAAAUUCUAGGACAAUCGUUGGCUAAAAAUCACCUUAGGAUGAAAAAUUUGAGGCAAAUUUUUUUAA,1.31

# Excerpt of the above (sample 3):
Oligonucleotide,E-score
CGTTGTAC,0.124
CTCGCACC,-0.0489
AATTGAGT,-0.0273
GAACTGAA,0.077
ATTTCTCA,-0.11
CTATGCAC,-0.139
TACGTCGA,-0.152
AAGAACGT,0.149
ACCATGGA,-0.172
GCCATTCC,0.0127
CCTGGTAC,-0.196
ATCCTAAA,-0.126
CGTTATAA,0.0667
CCGCTGGA,0.197
CCCTAATC,-0.261
AAAGTGAA,-0.0586
GCCTCTGA,-0.169
ATGCTGCA,-0.164
